{"data": "Results pooled from the literature", "target": "Glucagon-like peptide 1 receptor (GLP1R, Homo sapiens, UniProt P43220)", "mode": "agonist", "note": "Protocols differ between the studies behind these lines. pEC50: −log10 of the molar value.", "UniProt P43220, sequence (whole entry, looked up)": "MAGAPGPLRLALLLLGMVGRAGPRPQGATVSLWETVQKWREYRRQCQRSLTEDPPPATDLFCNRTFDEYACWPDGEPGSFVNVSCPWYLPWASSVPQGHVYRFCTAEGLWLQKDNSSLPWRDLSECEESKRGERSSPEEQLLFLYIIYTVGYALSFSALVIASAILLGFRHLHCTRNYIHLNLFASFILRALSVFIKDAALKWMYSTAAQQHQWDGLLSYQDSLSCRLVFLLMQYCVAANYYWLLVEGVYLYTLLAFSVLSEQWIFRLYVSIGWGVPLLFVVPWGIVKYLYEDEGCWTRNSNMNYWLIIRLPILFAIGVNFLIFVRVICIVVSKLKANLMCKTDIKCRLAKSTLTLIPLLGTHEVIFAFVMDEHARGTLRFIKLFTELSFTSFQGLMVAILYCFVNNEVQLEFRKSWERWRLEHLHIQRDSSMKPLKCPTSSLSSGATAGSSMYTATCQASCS"}
{"SMILES": "CC[C@H](C)[C@H](NC(=O)[C@H](Cc1ccccc1)NC(=O)[C@H](CCC(=O)O)NC(=O)[C@H](CCCCN)NC(=O)[C@H](C)NC(=O)[C@H](C)NC(=O)[C@H](CCC(N)=O)NC(=O)CNC(=O)[C@H](CCC(=O)O)NC(=O)[C@H](CC(C)C)NC(=O)[C@H](Cc1ccc(O)cc1)NC(=O)C[C@@H](NC(=O)[C@H](CO)NC(=O)C(C)(C)NC(=O)[C@H](CC(=O)O)NC(=O)[C@H](CO)NC(=O)[C@@H](NC(=O)[C@H](Cc1ccccc1)NC(=O)[C@@H](NC(=O)CNC(=O)[C@H](CCC(=O)O)NC(=O)[C@H](C)NC(=O)[C@@H](N)Cc1c[nH]cn1)[C@@H](C)O)[C@@H](C)O)C(C)C)C(=O)N[C@@H](C)C(=O)N[C@@H](Cc1c[nH]c2ccccc12)C(=O)N[C@@H](CC(C)C)C(=O)N[C@H](C(=O)N[C@@H](CCCCN)C(=O)NCC(=O)N[C@@H](CCCNC(=N)N)C(N)=O)C(C)C", "test": "cAMP, luciferase", "pEC50": 9.66}
{"SMILES": "CC[C@H](C)[C@H](NC(=O)[C@H](Cc1ccccc1)NC(=O)[C@H](CCC(=O)O)NC(=O)[C@H](CCCNC(=N)N)NC(=O)[C@@H](NC(=O)[C@H](C)NC(=O)[C@H](CCC(=O)O)NC(=O)[C@H](CCC(=O)O)NC(=O)[C@H](CCC(=O)O)NC(=O)[C@H](CC(C)C)NC(=O)[C@H](Cc1ccc(O)cc1)NC(=O)[C@H](CCCCN)NC(=O)[C@H](CO)NC(=O)[C@H](CC(C)C)NC(=O)[C@H](CC(=O)O)NC(=O)[C@H](CO)NC(=O)[C@@H](NC(=O)[C@H](Cc1ccccc1)NC(=O)[C@@H](NC(=O)CNC(=O)[C@H](CCC(N)=O)NC(=O)[C@@H](CO)NC(=O)[C@@H](N)Cc1c[nH]cn1)[C@@H](C)O)[C@@H](C)O)C(C)C)C(=O)N[C@@H](C)C(=O)N[C@@H](Cc1c[nH]c2ccccc12)C(=O)N[C@@H](CC(C)C)C(=O)N[C@@H](CCCCN)C(=O)N[C@@H](CC(N)=O)C(=O)NCC(=O)NCC(=O)N1CCC[C@H]1C(=O)N[C@@H](CO)C(=O)N[C@@H](Cc1ccc(O)cc1)C(=O)N[C@@H](CO)C(=O)N[C@@H](CCSC)C(=O)N[C@@H](CCC(=O)O)C(=O)N[C@@H](Cc1c[nH]cn1)C(=O)N[C@@H](Cc1ccccc1)C(=O)N[C@@H](CCCNC(=N)N)C(=O)N[C@@H](Cc1c[nH]c2ccccc12)C(=O)NCC(=O)N[C@@H](CCCCN)C(=O)N1CCC[C@H]1C(=O)N[C@H](C(N)=O)C(C)C", "test": "cAMP, FRET", "pEC50": 9.56}
{"SMILES": "CC[C@H](C)[C@H](NC(=O)[C@H](Cc1ccccc1)NC(=O)[C@H](CCC(=O)O)NC(=O)[C@H](CCCCN)NC(=O)[C@H](C)NC(=O)[C@H](C)NC(=O)[C@H](CCC(N)=O)NC(=O)CNC(=O)[C@H](CCC(=O)O)NC(=O)[C@H](CC(C)C)NC(=O)[C@H](Cc1ccc(O)cc1)NC(=O)[C@H](CO)NC(=O)[C@H](CO)NC(=O)[C@@H](NC(=O)[C@H](CC(=O)O)NC(=O)[C@H](CO)NC(=O)[C@@H](NC(=O)CN(C[C@@H](NC(=O)CNC(=O)CN(C[C@H](C)NC(=O)[C@@H](N)Cc1c[nH]cn1)S(=O)(=O)c1ccc(C(=O)O)cc1)[C@H](C)O)S(=O)(=O)Cc1ccccc1)[C@@H](C)O)C(C)C)C(=O)N[C@@H](C)C(=O)N[C@@H](Cc1c[nH]c2ccccc12)C(=O)N[C@@H](CC(C)C)C(=O)N[C@H](C(=O)N[C@@H](CCCCN)C(=O)NCC(=O)N[C@@H](CCCNC(=N)N)C(=O)NCC(N)=O)C(C)C", "test": "reporter gene, luciferase", "pEC50": "< 6.00"}
{"SMILES": "CC[C@H](C)[C@H](NC(=O)[C@H](Cc1ccccc1)NC(=O)[C@H](CCC(=O)O)NC(=O)[C@H](CCCCN)NC(=O)[C@H](C)NC(=O)[C@H](C)NC(=O)[C@H](CCC(N)=O)NC(=O)CNC(=O)[C@H](CCC(=O)O)NC(=O)[C@H](CC(C)C)NC(=O)[C@H](Cc1ccc(O)cc1)NC(=O)[C@H](CO)NC(=O)[C@H](CO)NC(=O)[C@@H](NC(=O)[C@H](CC(=O)O)NC(=O)[C@H](CO)NC(=O)[C@@H](NC(=O)[C@H](Cc1ccccc1)NC(=O)[C@@H](NC(=O)CNC(=O)[C@@H](N)CCC(=O)O)[C@@H](C)O)[C@@H](C)O)C(C)C)C(=O)N[C@@H](C)C(=O)N[C@@H](Cc1c[nH]c2ccccc12)C(=O)N[C@@H](CC(C)C)C(=O)N[C@H](C(=O)N[C@@H](CCCCN)C(=O)NCC(=O)N[C@@H](CCCNC(=N)N)C(N)=O)C(C)C", "test system": "human cells", "pEC50": 6.44}
{"SMILES": "CC[C@H](C)[C@H](NC(=O)[C@H](Cc1ccccc1)NC(=O)[C@H](CCC(=O)O)NC(=O)[C@H](CCCCN)NC(=O)[C@H](C)NC(=O)[C@H](C)NC(=O)[C@H](CCC(N)=O)NC(=O)CNC(=O)[C@H](CCC(=O)O)NC(=O)[C@H](CC(C)C)NC(=O)[C@H](Cc1ccc(O)cc1)NC(=O)[C@H](CO)NC(=O)[C@H](CO)NC(=O)[C@@H](NC(=O)[C@H](CC(=O)O)NC(=O)[C@H](CO)NC(=O)[C@@H](NC(=O)[C@H](Cc1ccccc1)NC(=O)[C@@H](NC(=O)CNC(=O)[C@H](CCC(=O)O)NC(=O)[C@H](C)NC(=O)[C@H](Cc1c[nH]cn1)NC[C@@H](N)Cc1ccccc1)[C@@H](C)O)[C@@H](C)O)C(C)C)C(=O)N[C@@H](C)C(=O)N[C@@H](Cc1c[nH]c2ccccc12)C(=O)N[C@@H](CC(C)C)C(=O)N[C@H](C(=O)N[C@@H](CCCCN)C(=O)NCC(=O)N[C@@H](CCCNC(=N)N)C(N)=O)C(C)C", "test": "reporter gene, luciferase", "pEC50": 11.40}
{"SMILES": "CC[C@H](C)[C@H](NC(=O)[C@H](Cc1ccccc1)NC(=O)[C@H](CCC(=O)O)NC(=O)[C@H](CCCCN)NC(=O)[C@H](C)NC(=O)[C@H](C)NC(=O)[C@H](CCC(N)=O)NC(=O)CNC(=O)[C@H](CCC(=O)O)NC(=O)[C@H](CC(C)C)NC(=O)[C@H](Cc1ccc(O)cc1)NC(=O)[C@H]1CCC[C@@H]1NC(=O)[C@H](CO)NC(=O)C(C)(C)NC(=O)[C@H](CC(=O)O)NC(=O)[C@H](CO)NC(=O)[C@@H](NC(=O)[C@H](Cc1ccccc1)NC(=O)[C@@H](NC(=O)CNC(=O)[C@H](CCC(=O)O)NC(=O)C(C)(C)NC(=O)[C@@H](N)Cc1c[nH]cn1)[C@@H](C)O)[C@@H](C)O)C(=O)N[C@@H](C)C(=O)N[C@@H](Cc1c[nH]c2ccccc12)C(=O)N[C@@H](CC(C)C)C(=O)N[C@H](C(=O)N[C@@H](CCCCN)C(=O)NCC(=O)N[C@@H](CCCNC(=N)N)C(N)=O)C(C)C", "test": "cAMP, luciferase", "pEC50": 9.86}
{"SMILES": "CC(=O)N[C@@H](Cc1c[nH]cn1)C(=O)N[C@@H](C)C(=O)N[C@@H](CCC(=O)O)C(=O)NCC(=O)N[C@H](C(=O)N[C@@H](Cc1ccccc1)C(=O)N[C@H](C(=O)N[C@@H](CO)C(=O)N[C@@H](CC(=O)O)C(=O)N[C@H](C(=O)N[C@@H](CO)C(=O)N[C@@H](CO)C(=O)N[C@@H](Cc1ccc(O)cc1)C(=O)N[C@@H](CC(C)C)C(=O)N[C@@H](CCC(=O)O)C(=O)NCC(=O)N[C@@H](CCC(N)=O)C(=O)N[C@@H](C)C(=O)N[C@@H](C)CN(CC(=O)N[C@@H](CCC(=O)O)C(=O)N[C@@H](Cc1ccccc1)CN(CC(=O)N[C@@H](C)C(=O)N[C@@H](Cc1c[nH]c2ccccc12)CN(CC(=O)N[C@H](C(=O)N[C@@H](CCCCN)CN(CC(=O)N[C@@H](CCCNC(=N)N)C(=O)N[C@@H](CCCCN)CN(CC(N)=O)S(C)(=O)=O)S(C)(=O)=O)C(C)C)S(=O)(=O)CC(C)C)S(=O)(=O)CC(C)C)S(=O)(=O)CCN)C(C)C)[C@@H](C)O)[C@@H](C)O", "test": "reporter gene, luciferase", "pEC50": "< 6.00"}
{"SMILES": "CCCCCCCCCCCCCCCC(=O)N[C@@H](CCC(=O)NCCCC[C@H](NC(=O)[C@H](CC(=O)O)NC(=O)[C@H](CO)NC(=O)[C@@H](NC(=O)[C@H](Cc1ccccc1)NC(=O)[C@@H](NC(=O)CNC(=O)[C@H](CCC(N)=O)NC(=O)[C@H](C)NC(=O)[C@H](Cc1c[nH]cn1)NCC(F)(F)F)[C@@H](C)O)[C@@H](C)O)C(=O)N[C@@H](CO)C(=O)N[C@@H](CCCCN)C(=O)N[C@@H](Cc1ccc(O)cc1)C(=O)N[C@@H](CC(C)C)C(=O)N[C@@H](CC(=O)O)C(=O)N[C@@H](CCC(=O)O)C(=O)N[C@@H](CCCNC(=N)N)C(=O)N[C@@H](C)C(=O)N[C@@H](C)C(=O)N[C@@H](CCC(N)=O)C(=O)N[C@@H](CC(=O)O)C(=O)N[C@@H](Cc1ccccc1)C(=O)N[C@H](C(=O)N[C@@H](CCC(N)=O)C(=O)N[C@@H](Cc1c[nH]c2ccccc12)C(=O)N[C@@H](CC(C)C)C(=O)N[C@@H](CC(C)C)C(=O)N[C@@H](CC(=O)O)C(=O)NCC(=O)NCC(=O)N1CCC[C@H]1C(=O)N[C@@H](CO)C(=O)N[C@@H](CO)C(=O)NCC(=O)N[C@@H](C)C(=O)N1CCC[C@H]1C(=O)N1CCC[C@H]1C(=O)N1CCC[C@H]1C(=O)N[C@@H](CO)C(N)=O)C(C)C)C(=O)O", "test": "reporter gene, luciferase", "pEC50": 11.20}
{"note": "For quick reference, copied from above:"}
{"SMILES": "CC[C@H](C)[C@H](NC(=O)[C@H](Cc1ccccc1)NC(=O)[C@H](CCC(=O)O)NC(=O)[C@H](CCCCN)NC(=O)[C@H](C)NC(=O)[C@H](C)NC(=O)[C@H](CCC(N)=O)NC(=O)CNC(=O)[C@H](CCC(=O)O)NC(=O)[C@H](CC(C)C)NC(=O)[C@H](Cc1ccc(O)cc1)NC(=O)[C@H](CO)NC(=O)[C@H](CO)NC(=O)[C@@H](NC(=O)[C@H](CC(=O)O)NC(=O)[C@H](CO)NC(=O)[C@@H](NC(=O)CN(C[C@@H](NC(=O)CNC(=O)CN(C[C@H](C)NC(=O)[C@@H](N)Cc1c[nH]cn1)S(=O)(=O)c1ccc(C(=O)O)cc1)[C@H](C)O)S(=O)(=O)Cc1ccccc1)[C@@H](C)O)C(C)C)C(=O)N[C@@H](C)C(=O)N[C@@H](Cc1c[nH]c2ccccc12)C(=O)N[C@@H](CC(C)C)C(=O)N[C@H](C(=O)N[C@@H](CCCCN)C(=O)NCC(=O)N[C@@H](CCCNC(=N)N)C(=O)NCC(N)=O)C(C)C", "test": "reporter gene, luciferase", "pEC50": "< 6.00"}
